Measurements from different studies.
Compare with care: the assays were run in different laboratories. ± gives the spread as reported.

SMILES | cell line | test | conditions | scale | quantity | result
CCCC[C@@H]1NC(=O)[C@@H](NC(=O)[C@H](CCC(=O)O)NC(=O)[C@H](CCC(=O)O)NC(C)=O)CCCCNC(=O)[C@@H](NC(=O)CN2CCN(CC(=O)O)CCN(CC(=O)O)CCN(CC(=O)O)CC2)CCCCNC(=O)[C@H](C(C)C)NC(=O)[C@@H]2CCCN2C(=O)[C@H](CCCNC(=N)N)NC(=O)CNC(=O)[C@H](Cc2c[nH]c3ccccc23)NC(=O)[C@H](CCCNC(=N)N)NC(=O)[C@@H](Cc2ccccc2)NC(=O)[C@H](Cc2c[nH]cn2)NC(=O)[C@H](CCC(=O)O)NC1=O [indium-111 labelled] | B16/F1 | – | 40 min, 25 °C | – | cellular uptake | 72.5 ± 3.1%
COc1ccc2c(c1)/C(=N\Nc1nnc3n1N=C(c1ccccc1)CS3)C(=O)N2 | NCI-60 cell line panel | – | 10 µM, growth inhibition above 10% | – | number of sensitive cell lines | 52
CC/C=C\C/C=C\C/C=C\C/C=C\C/C=C\C/C=C\CCC(=O)Nc1ccn(C2OC(CO)C(O)C2(F)F)c(=O)n1 (centres unmarked) | NCI-H226 | NCI60 screen | – | – | TGI | 2.75 µM
COc1cc(CNC(=O)C[C@H](C)CCC=C(C)C)ccc1OCc1cn(-c2ccc(Cl)cc2Cl)nn1 | K562 leukaemia cells | SRB | 10 µM, 48 h | – | growth percent | 81.4%
COc1ccc([C@@H]2CC(=O)c3c(O)cc(O[C@@H]4O[C@H](CO[C@@H]5O[C@@H](C)[C@H](O)[C@@H](O)[C@H]5O)[C@@H](O[C@H]5O[C@H](CO)[C@@H](O)[C@H](O)[C@H]5O)[C@H](O)[C@H]4O)cc3O2)cc1O | A549 | cell growth or viability, MTS | 150 µg/mL, 72 h | – | viability | 32.6%
CC(=O)N[C@H](C(=O)N[C@H](C(=O)N[C@@H](CCCNC(=N)N)C(=O)N1Cc2ccccc2C[C@H]1C(=O)N[C@@H](Cc1ccccc1)C(N)=O)C1CCCCC1)C(C)C | MBP-specific BC-3 T cells | Bio-Plex multiplex, measured: FGF | 200 µg/mL, 24 h, together with: MBP87-99 antigen | – | cytokine level | 2.1 ± 0.6 pg/mL
COc1cc(CNC(=O)C[C@H](C)CCC=C(C)C)ccc1OCc1cn(-c2ccccc2[N+](=O)[O-])nn1 | UACC-62 melanoma cells | SRB | 10 µM, 48 h | – | growth percent | 48%
Cc1ccc(C(C)C)cc1.[Cl-].[Cl][Ru+].[Ru+].c1ccc(-c2cn(CCCCOc3ccccc3-c3nc4ccccc4s3)nn2)nc1 | MCF7 | annexin V/PI flow cytometry | 8 µM, 24 h | – | necrotic cells | 10.5%
CCN(CC)C1CCN(Cc2cc(C#CCO)cc(I)c2O)CC1 | NUGC-3 (p53 Y220C) | apoptosis, ApoTox-Glo Triplex | 6.25 to 100 µM, 6 h, 37 °C | – | caspase-3/7 activity | no effect
COc1ccc(S(=O)(=O)N(CC(=O)O)c2c(C)c(C)c(N(CC(=O)O)S(=O)(=O)c3cccnc3)c(C)c2C)cc1 | H9c2 | ELISA | 10 µM, together with: LPS 1 µg/mL | – | TNF-α secretion | decreased
CC(=O)OC[C@H]1O[C@@H](Sc2sc(C(=O)c3ccc(C)cc3)c(N)c2-c2nc3ccccc3s2)[C@H](OC(C)=O)[C@@H](OC(C)=O)[C@H]1OC(C)=O | MDA-MB-435 | SRB | 10 µM, 48 h | baseline: untreated | growth | 86.3%
C=C(C)[C@@H]1CC[C@]2(C(=O)OCO/N=[N+](\[O-])N3CCCC3)CC[C@]3(C)[C@H](CC[C@@H]4[C@@]5(C)CC[C@H](OC(C)=O)C(C)(C)[C@@H]5CC[C@]43C)[C@@H]12 | B16-F10 | PI flow cytometry | 0.50 µM | – | cells in G1 phase | 46.3%
CC(=O)C1=C(C)NC(SCC(=O)c2ccccc2)=C(C#N)C1c1sccc1C (centres unmarked) | A549 cells, GR knockdown | – | concentration not given, 24 h, weaker than with normal GR, together with: TNF-α 20 ng/mL | – | COX-2 mRNA level | decreased
[Cl-].[Cl][Ru-4]123([n+]4ccccc4-c4cccc([n+]41)-c1cccc[n+]12)[n+]1ccc(-c2ccccc2)c2ccc4c(-c5ccccc5)cc[n+]3c4c21 | HeLa XPA knockout | – | 72 h | baseline: parental HeLa over XPA knockout | sensitization ratio | 2 fold
COc1cc(CNC(=O)C[C@H](C)CCC=C(C)C)ccc1OCc1cn(-c2ccc(F)cc2)nn1 | K562 leukaemia cells | SRB | 10 µM, 48 h | – | growth percent | 72.7%
COc1ccc2c(oc3c4ccc(O)cc4oc(=O)c23)c1CC=C(C)C | 3T3-L1 adipocytes | activator | up to 100 µM | – | glucose consumption | inactive
N=C(N/N=C/c1ncc[nH]1)N/N=C/c1ncc[nH]1 | KP-4 | – | 0.5 × IC50, together with: 1 mM 2-deoxyglucose | baseline: compound alone | additional viability reduction | ~50%
Cc1cc(/C=C2\CN(C(C)C)C/C(=C\c3cc(C)c(O)c(C)c3)C2=O)cc(C)c1O | HeLa | cell viability, MTT | 24 h | – | maximum inhibition | 45.1 ± 9.41%

SMILES | cell line | test | conditions | scale | quantity | result
COc1cc2c(C=C3C(=O)Nc4ccccc43)c[nH]c2cc1C | NCI-60 panel mean | – | 48 h | – | TGI | 6.46 µM
COc1cc(CNC(=O)C[C@H](C)CCC=C(C)C)ccc1OCc1cn(-c2ccccc2)nn1 | NCI-H460 | SRB | 10 µM, 48 h | – | growth percent | 97%
CC(C)[C@H](NC(=O)[C@@H]1CCCN1C(=O)[C@H](CCCNC(=N)N)NC(=O)[C@H](CS)NC(=O)[C@H](Cc1c[nH]c2ccccc12)NC(=O)[C@H](CCCNC(=N)N)NC(=O)[C@@H](Cc1ccccc1)NC(=O)[C@H](Cc1c[nH]cn1)NC(=O)[C@H](CCC(=O)O)NC(=O)[C@H](CS)NC(=O)[C@H](CS)NC(=O)[C@H](CCCCN)NC(=O)[C@@H]1CC(=O)N[C@@H](CCCNC(=N)N)C(=O)NCC(=O)N[C@@H](CC(=O)O)C(=O)N[C@H](Cc2ccc(O)cc2)C(=O)N1)C(N)=O | B16/F1 | competitor | 0.1 µM, 120 min, 25 °C, together with: 99mTc-RGD-Lys-(Arg11)CCMSH | baseline: no blocking | uptake inhibition | 88.1%
O=Cc1c(O)ccc2ccccc12 | HUVEC | RNA sequencing, measured: DDIT3 | 75 µM, 24 h | baseline: DMSO | log2 fold change | 3.69
CCC(=C(c1ccc(Cl)cc1)c1ccc(OCCCN(C)C)cc1)c1ccc(OC)cc1 | NCI-H226 | cell growth or viability, SRB | – | – | GI50 | 7.7 µM
COc1cc2c(OC3OCC(OC)C(OC)C3OC(=O)c3ccc(Br)cc3)c3c(c(-c4ccc5c(c4)OCO5)c2cc1OC)C(=O)OC3 (centres unmarked) | FaDu | western blot, measured: N-cadherin | concentration not given, 36 h | baseline: DMSO | protein level | decreased
C[C@H](CC(=O)C[C@@H](C)[C@H]1C[C@H](O)[C@@]2(C)C3=C(C(=O)C[C@]12C)[C@@]1(C)CCC(=O)C(C)(C)[C@@H]1C[C@@H]3O)C(=O)O | 3T3-L1 adipocytes | – | 25 µg/mL | – | glucose consumption | 11.9 ± 0.63 mmol/L
CC1=[N+]2N=C(c3ccccc3)[O][Pd-2]2([Cl])[O+]=C2Oc3ccccc3C=C21 (centres unmarked) | HeLa | annexin V/PI flow cytometry | IC50, 24 h | baseline: untreated | early apoptotic cells | 23 fold
CO[C@H]1N(OC)c2ccccc2[C@@]12CN=C(Nc1cc(C(F)(F)F)cc(C(F)(F)F)c1)S2 (relative stereo) | HCT-116 | PI flow cytometry | 40 µM, 72 h | – | G2/M phase cells | 5.07 ± 2.52%
C=C1C(=O)OC2C=C(C)CCC=C(C(=O)OC(C)C(C)(O)C(=O)OC3C(OC(C)=O)C(C(=O)OC)=CCCC(C)=CC4OC(=O)C(=C)C43)CC(OC(=O)C(C)=CC)C12 (centres unmarked) | HeLa | – | 3 µM, 24 h | baseline: untreated | caspase-8 activity | 2.42 fold
O=C(N1CCCC1)n1cc(-c2ccc(-c3ccccc3)cc2)nn1 | mouse T-cells | N-terminal labeled proteins, N-terminal enrichment proteomics, measured: SERF2 | 1 nM, 6 h | baseline: DMSO | SILAC ratio | 1.08 ± 0.08
CC(C)[C@@H]1NC(=O)[C@@H](Cc2ccccc2)NC(=O)[C@H](CC(=O)O)NC(=O)CNC(=O)[C@H](CCCNC(=N)N)NC1=O | B16/F1 | – | 0.1 µM, 3 h, 37 °C, read 5 days later | baseline: untreated | survival decrease | 6%
COc1cc(CNC(=O)C[C@H](C)CCC=C(C)C)ccc1OCc1cn(-c2cccc([N+](=O)[O-])c2)nn1 | UACC-62 melanoma cells | SRB | 10 µM, 48 h | – | growth percent | 65.9%
Cc1cc([C@H](C(=O)N2C[C@H](O)C[C@H]2C(=O)N[C@@H](CC(=O)N2CCC(N3CCC(C#Cc4ccc(C(=O)N[C@H]5C(C)(C)[C@H](Oc6ccc(C#N)c(Cl)c6)C5(C)C)cc4)CC3)CC2)c2ccc(-c3scnc3C)cc2)C(C)C)on1 | MDA-MB-453 | – | concentration not given, 24 h, together with: 1 nM R1881 | – | total AKT level | no effect
Cc1ccc(=O)n(-c2ccc(NC(=O)[C@H](C)N(C)C)cc2)c1 | NIH3T3 | cell proliferation, CCK-8 | – | baseline: pirfenidone | relative potency | 10
COc1ccc([C@@H]2CC(=O)c3c(O)cc(O[C@@H]4O[C@H](CO[C@@H]5O[C@@H](C)[C@H](O)[C@@H](O)[C@H]5O)[C@@H](O)[C@H](O)[C@H]4O)cc3O2)cc1O | A549 | Matrigel Transwell invasion | 50 µg/mL, 24 h | – | invasion | 52.8 ± 3.49%
COc1ccc(C2=Nn3c(NN=C4C(=O)N(Cc5ccccc5)c5ccc(Cl)cc54)nnc3SC2)cc1 | SF-295 | cell growth or viability, SRB | 10 µM | – | inhibition | 30%

Repeated from above:
SMILES | cell line | test | conditions | scale | quantity | result
COc1cc(CNC(=O)C[C@H](C)CCC=C(C)C)ccc1OCc1cn(-c2ccc(Cl)cc2Cl)nn1 | K562 leukaemia cells | SRB | 10 µM, 48 h | – | growth percent | 81.4%
COc1ccc([C@@H]2CC(=O)c3c(O)cc(O[C@@H]4O[C@H](CO[C@@H]5O[C@@H](C)[C@H](O)[C@@H](O)[C@H]5O)[C@@H](O[C@H]5O[C@H](CO)[C@@H](O)[C@H](O)[C@H]5O)[C@H](O)[C@H]4O)cc3O2)cc1O | A549 | cell growth or viability, MTS | 150 µg/mL, 72 h | – | viability | 32.6%
